Assay results pooled from the literature.
Every numbered part comes from another study and shows a few of its results, in no order. Changes are numbered by the printed parent chain.

Sample 1
Target: UBE2I UBC core domain (UniProt P63279)
Technique: yeast two-hybrid
Matrix: yeast
Notes: mostly zero background
Reference: not given
Direction: higher = stronger interaction
Endpoint: lacZ reporter activity
B1: ANAPC11 RING domain (UniProt Q9NYG5); chain GICRMAFNGCCPDCKVPGDDCPLVWGQCSHCFHMHCILKWLHAQQVQQHCPMCRQEWKFKE
B2: MYCBP2 RING domain (UniProt O75592); chain TSLKQDADDMCMICFTEALSAAPAIQLDCSHIFHLQCCRRVLENRWLGPRITFGFISCPICKNKINHIVLKD
B3: MEX3B RING domain (UniProt Q6ZN04); chain SGLRRKGSRDCSVCFESEVIAALVPCGHNLFCMECANRICEKSEPECPVCHTAVTQAIRIF
B4: TRIM60 RING domain (UniProt Q495X7); chain ALVNLQEESSCPICLEYLKDPVTINCGHNFCRSCLSVSWKDLDDTFPCPVCRFCFPYKSFRR
B5: TRIM37 RING domain (UniProt O94972); chain SVESIAEVFRCFICMEKLRDARLCPHCSKLCCFSCIRRWLTEQRAQCPHCRAPLQLRELVN
B6: TRIM26 RING domain (UniProt Q12899); chain PLRSLEEEVTCSICLDYLRDPVTIDCGHVFCRSCTTDVRPISGSRPVCPLCKKPFKKENIRP
B7: RNF2 RING domain (UniProt Q99496); chain SPRSLHSELMCPICLDMLKNTMTTKECLHRFCADCIITALRSGNKECPTCRKKLVSKRSLR
B8: RNF122 RING domain (UniProt Q9H9V4); chain AKKLQLYGQTCAVCLEDFKGKDELGVLPCQHAFHRKCLVKWLEVRCVCPMCNKPIASPSEAT
Sequence = B1 (ANAPC11 RING domain); result = 0
Sequence = AEADPLGRFTCPVCLEVYEKPVQVPCGHVFCSACLQECLKPKKPVCGVCRSALAPGVRAV (RNF114 RING domain (UniProt Q9Y508)); result = 0
Sequence = YCEMGSTFQLCKICAENDKDVKIEPCGHLMCTSCLTAWQESDGQGCPFCRCEIKGTEPII (CBLB RING domain (UniProt Q13191)); result = 0
Sequence = PEELAVNNDDCAICWDSMQAARKLPCGHLFHNSCLRSWLEQDTSCPTCRMSLNIADNNR (AMFR RING domain (UniProt Q9UKV5)); result = 0
Sequence = QVQSRTKIEECVVCSDKKAAVLFQPCGHMCACENCANLMKKCVQCRAVVERRVPFI (MIB1 RING domain (UniProt Q86YT6)); result = 0
Sequence = B2 (MYCBP2 RING domain); result = 0
Sequence = B3 (MEX3B RING domain); result = 0
Sequence = MNDVLENELQCIICSEYFIEAVTLNCAHSFCSYCINEWMKRKIECPICRKDIKSKTYSL (RNF8 RING domain (UniProt O76064)); result = 0
Sequence = B4 (TRIM60 RING domain); result = 0
Sequence = B5 (TRIM37 RING domain); result = 0
Sequence = B6 (TRIM26 RING domain); result = 0
Sequence = B7 (RNF2 RING domain); result = 0
Sequence = B8 (RNF122 RING domain); result = 0

Sample 2
Target: Protein C-ets-1 (ETS1, Homo sapiens, UniProt P14921, residues 1-441, Y397A, full length assumed)
Technique: protein-binding microarray
Form: double-stranded DNA, one strand shown
Matrix: in vitro
Tested at: not given
Notes: k-mer, scored over probes, only values ≥0.25
Direction: higher = stronger binding
Endpoint: E-score
Residues (chain): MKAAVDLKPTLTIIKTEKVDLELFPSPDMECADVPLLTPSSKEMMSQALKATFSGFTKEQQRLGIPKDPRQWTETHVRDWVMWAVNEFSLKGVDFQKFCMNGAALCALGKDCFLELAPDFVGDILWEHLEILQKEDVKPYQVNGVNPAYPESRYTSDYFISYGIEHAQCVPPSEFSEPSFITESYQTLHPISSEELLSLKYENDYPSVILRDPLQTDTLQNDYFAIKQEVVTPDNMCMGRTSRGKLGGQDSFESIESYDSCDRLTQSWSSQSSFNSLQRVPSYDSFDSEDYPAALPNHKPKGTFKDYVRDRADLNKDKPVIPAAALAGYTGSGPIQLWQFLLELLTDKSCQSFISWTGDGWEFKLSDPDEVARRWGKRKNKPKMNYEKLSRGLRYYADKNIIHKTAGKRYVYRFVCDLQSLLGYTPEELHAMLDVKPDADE
Sequence = AATTTCCG; result = 0.392
Sequence = AATATACA; result = 0.292
Sequence = AGCAAACA; result = 0.298
Sequence = CATATACA; result = 0.307
Sequence = GATTGTCA; result = 0.349
Sequence = ACCGGAAC; result = 0.335
Sequence = AATGTCGA; result = 0.253
Sequence = GCCGCCCC; result = 0.325
Sequence = ACATTTGC; result = 0.291
Sequence = TGCGGAAA; result = 0.286
Sequence = CATGTCGG; result = 0.256
Sequence = GGATATAC; result = 0.287
Sequence = TCGTACAA; result = 0.303
Sequence = TACAAACA; result = 0.289
Sequence = CTTCCGTA; result = 0.326
Sequence = GACAGTGC; result = 0.259
Sequence = TGCCACAA; result = 0.305
Sequence = GTGTCGCA; result = 0.274

Sample 3
Target: CCNB1, cyclin fold, Cln2 fusion (human)
Technique: yeast growth competition, sequencing
Matrix: yeast
Notes: weak parent motif
Reference: not given
Direction: higher = stronger binding
Endpoint: normalised enrichment score
Starting sequence: CDC25A docking peptide (human); PPHRRRLLFACSP
Change = PRHRRRLLFACSP [P2R]; result = 0.48
Change = PPHRRRLHFACSP [L8H]; result = 0.546
Change = PPYRRRLLFACSP [H3Y]; result = 1.16
Change = PPHRRRLCFACSP [L8C]; result = -0.0383
Change = PPHRRRELFACSP [L7E]; result = 0.399
Change = PPHRRDLLFACSP [R6D]; result = 0.11
Change = PPHRRRVLFACSP [L7V]; result = 0.85
Change = PNHRRRLLFACSP [P2N]; result = 0.221
Change = PPHRRCLLFACSP [R6C]; result = 0.00797
Change = PPHRRRLLFCCSP [A10C]; result = 0.0948
Change = PPHRRRDLFACSP [L7D]; result = 0.225
Change = PPHRRRLLFACSI [P13I]; result = 0.744
Change = PPHRRRTLFACSP [L7T]; result = 0.949
Change = PPHRRRLLFACST [P13T]; result = 0.58
Change = PPHRRRLLCACSP [F9C]; result = 0.389
Change = PPHRRRLLFKCSP [A10K]; result = 0.72
Change = PPHRRRLLFACRP [S12R]; result = 0.907
Change = PPHRKRLLLACSP [R5K F9L]; result = 0.719
Change = PPHRRALLFACSP [R6A]; result = -0.0247

Sample 4
Target: ABI1, truncated, D143A, DHFR fusion (Arabidopsis thaliana)
Technique: DHFR PCA, deep sequencing
Matrix: yeast
Notes: methotrexate growth selection, single substitutions
Added: (+)-ABA 58 µM
Reference: wild-type fitted maximum
Direction: higher = stronger binding
Endpoint: relative binding score
Starting sequence: PYL1, truncated, DHFR fusion (Arabidopsis thaliana); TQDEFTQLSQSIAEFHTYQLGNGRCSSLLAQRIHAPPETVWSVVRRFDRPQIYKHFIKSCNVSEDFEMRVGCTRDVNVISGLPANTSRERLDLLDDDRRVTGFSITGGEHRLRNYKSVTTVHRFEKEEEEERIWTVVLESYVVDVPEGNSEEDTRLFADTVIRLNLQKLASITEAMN
Change = T120K; result = -1.4%
Change = D48I; result = -12%
Change = H34I; result = 83%
Change = S104G; result = 5.31%
Change = Y115K; result = 1.37%
Change = C72I; result = 75.2%
Change = R24W; result = 42.3%
Change = Q167T; result = 81.4%
Change = G148W; result = 37.1%
Change = T154H; result = -2.68%
Change = E67P; result = 74.1%
Change = M176Y; result = 78.2%
Change = D153N; result = 37.8%
Change = L20P; result = 91.8%
Change = L94A; result = 13.9%
Change = L166A; result = 4.85%
Change = G108K; result = 7.06%

Some of these lines once more (sample 1):
Sequence = YCEMGSTFQLCKICAENDKDVKIEPCGHLMCTSCLTAWQESDGQGCPFCRCEIKGTEPII (CBLB RING domain (UniProt Q13191)); result = 0
Sequence = PEELAVNNDDCAICWDSMQAARKLPCGHLFHNSCLRSWLEQDTSCPTCRMSLNIADNNR (AMFR RING domain (UniProt Q9UKV5)); result = 0
Sequence = QVQSRTKIEECVVCSDKKAAVLFQPCGHMCACENCANLMKKCVQCRAVVERRVPFI (MIB1 RING domain (UniProt Q86YT6)); result = 0
Sequence = B2 (MYCBP2 RING domain); result = 0
Sequence = B3 (MEX3B RING domain); result = 0
Sequence = MNDVLENELQCIICSEYFIEAVTLNCAHSFCSYCINEWMKRKIECPICRKDIKSKTYSL (RNF8 RING domain (UniProt O76064)); result = 0
Sequence = B4 (TRIM60 RING domain); result = 0
Sequence = B5 (TRIM37 RING domain); result = 0
Sequence = B6 (TRIM26 RING domain); result = 0
Sequence = B7 (RNF2 RING domain); result = 0
